Literature values, collected from citations in different studies.
Protocols differ between the studies behind these lines. In brackets after ≈: the same amount, converted by molar mass.
Sequence of UniProt Q9UL54 (whole entry, looked up): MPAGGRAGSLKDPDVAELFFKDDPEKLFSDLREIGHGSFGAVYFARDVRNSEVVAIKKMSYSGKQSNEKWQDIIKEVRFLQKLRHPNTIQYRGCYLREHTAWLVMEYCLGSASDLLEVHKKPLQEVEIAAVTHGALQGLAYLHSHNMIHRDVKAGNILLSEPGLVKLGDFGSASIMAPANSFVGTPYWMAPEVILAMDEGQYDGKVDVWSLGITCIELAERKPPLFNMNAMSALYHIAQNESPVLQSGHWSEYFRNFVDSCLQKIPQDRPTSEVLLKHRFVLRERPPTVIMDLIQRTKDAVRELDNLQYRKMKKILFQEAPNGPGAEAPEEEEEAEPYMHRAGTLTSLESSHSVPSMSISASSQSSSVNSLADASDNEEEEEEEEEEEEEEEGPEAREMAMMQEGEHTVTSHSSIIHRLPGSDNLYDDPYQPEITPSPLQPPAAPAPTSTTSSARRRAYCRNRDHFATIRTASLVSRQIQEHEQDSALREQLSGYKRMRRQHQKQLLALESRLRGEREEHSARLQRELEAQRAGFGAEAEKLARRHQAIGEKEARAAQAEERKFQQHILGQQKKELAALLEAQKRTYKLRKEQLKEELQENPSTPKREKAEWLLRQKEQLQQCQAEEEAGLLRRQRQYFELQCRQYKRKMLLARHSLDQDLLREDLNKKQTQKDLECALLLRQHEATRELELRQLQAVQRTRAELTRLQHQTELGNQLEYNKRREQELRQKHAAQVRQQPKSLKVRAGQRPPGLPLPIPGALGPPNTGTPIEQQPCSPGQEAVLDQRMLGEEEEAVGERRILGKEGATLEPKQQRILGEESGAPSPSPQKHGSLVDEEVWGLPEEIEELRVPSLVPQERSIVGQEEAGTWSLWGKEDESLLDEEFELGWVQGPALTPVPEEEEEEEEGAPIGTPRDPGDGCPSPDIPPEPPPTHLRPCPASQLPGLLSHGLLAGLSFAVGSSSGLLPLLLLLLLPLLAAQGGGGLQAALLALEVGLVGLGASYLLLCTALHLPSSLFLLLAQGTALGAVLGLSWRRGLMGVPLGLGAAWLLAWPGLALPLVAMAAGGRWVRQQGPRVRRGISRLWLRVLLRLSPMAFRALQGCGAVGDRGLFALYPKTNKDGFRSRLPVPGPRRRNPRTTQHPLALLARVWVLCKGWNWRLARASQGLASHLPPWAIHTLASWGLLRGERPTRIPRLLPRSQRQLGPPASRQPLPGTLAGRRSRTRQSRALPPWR

SMILES | target or system | test | system | setting | how to read | endpoint | value
O=C(CCCN1CC=C(n2c(=O)[nH]c3ccccc32)CC1)c1ccc(F)cc1 | – | – | human | – | – | free Cmax | 16 nM
CC1(C)S[C@@H]2[C@H](NC(=O)[C@H](N)c3ccccc3)C(=O)N2[C@H]1C(=O)O | Pseudomonas aeruginosa | – | clinical isolate RKI-No_393/11 | – | – | MIC | > 16 µg/mL
COc1ccc(Cl)cc1C(=O)NCCc1ccc(S(=O)(=O)NC(=O)NC2CCCCC2)cc1 | – | – | water | – | – | solubility | < 1000 µg/mL
Cc1cc(C)c(CNC(=O)c2cc(Cl)c3c(c2C)O[C@@](C)([C@H]2CC[C@H](N(C)C)CC2)O3)c(=O)[nH]1 | – | – | human, plasma | oral, 50 mg single dose, study, geometric mean | – | AUC(0-inf) | 1660 ng·h/mL
Cc1cc(-c2nccc3c2ccn3CC(=O)Nc2ccc(-c3cnccn3)cn2)ccn1 | – | – | dog | 10 mg/kg/day, 1 month, repeat dosing | – | AUC(0-24 h), total | 4.7 µM·h
C#C[C@]1(O)CC[C@H]2[C@@H]3CCC4=CC(=NO)CC[C@@H]4[C@H]3CC[C@@]21CC (mixture of isomers) | – | – | human, fed | 0.18 mg norgestimate, single dose | – | Cmax, mean | 0.657 ng/mL
CC(C)(/C=C(\C#N)C(=O)N1CCC[C@@H](n2nc(-c3ccc(Oc4ccccc4)cc3F)c3c(N)ncnc32)C1)N1CCN(C2COC2)CC1 | – | – | human | 600 mg once daily | – | AUC(0-last) | 1060 ng·h/mL
C=C[C@]1(C)C[C@@H](OC(=O)CSc2ccccc2N)[C@]2(C)[C@H](C)CC[C@]3(CCC(=O)[C@H]32)[C@@H](C)[C@@H]1O | – | – | healthy adult chickens | intramuscular | – | elimination half-life | 5.5 h
C[Si]1(C)O[Si](C)(C)O[Si](C)(C)O[Si](C)(C)O[Si](C)(C)O1 | – | – | – | 0.13 0.24 µg/L in water, 24.6 °C | – | log KAW | 3.13
Fc1ccc([C@@H]2CCNC[C@H]2COc2ccc3c(c2)OCO3)cc1 | – | – | plasma | – | – | free Cmax | 1.18 nM
Nc1ccn([C@@H]2O[C@H](CO)[C@@H](O)C2(F)F)c(=O)n1 | – | – | metastatic pancreatic cancer patients | dose not given | – | grade 3-4 neutropenia incidence | 27%
O=C1Nc2ccc(Cl)cc2[C@@](C#CC2CC2)(C(F)(F)F)O1 | – | – | human | – | – | Vd | 300 to 500 L
Cc1cn(-c2cc(NC(=O)c3ccc(C)c(Nc4nccc(-c5cccnc5)n4)c3)cc(C(F)(F)F)c2)cn1 | – | – | FaSSIF | literature value | – | solubility | 0.35 µg/mL (≈ 0.662 µM)
CCc1nn(CCCN2CCN(c3cccc(Cl)c3)CC2)c(=O)n1CCOc1ccccc1 | – | – | plasma | concentration not given, total, steady state | – | Cmax | 4840 nM
COc1cc2nc(c1)CNCCNCCNC2 | – | – | aqueous solution | Cu(II) 1 µM, ligand 10 µM | – | pCu | 16.7
CN(C)CCC[C@@]1(c2ccc(F)cc2)OCc2cc(C#N)ccc21 | – | – | human adolescents aged 15 years | – | – | CL/F | 20.8 L/h
Cc1c(-c2ccc(O)cc2)n(Cc2ccc(OCCN3CCCCCC3)cc2)c2ccc(O)cc12.Cl | – | – | water | – | – | solubility | < 1000 µg/mL
C[C@H]1COCCN1c1nc(-c2cnc(N)cc2C(F)F)nc(N2CCOCC2)n1 | MIA PaCa-2 cells | cell growth | – | – | – | GI50 | 885 nM
CC(=O)c1c(C)c2cnc(Nc3ccc(N4CCNCC4)cn3)nc2n(C2CCCC2)c1=O | – | – | supercritical CO2 | – | – | crossover pressure | 160 to 270 bar
Cc1cn([C@H]2C=C[C@@H](CO)O2)c(=O)[nH]c1=O | – | – | human | 0.67 mg/kg | – | oral bioavailability | > 80%
CN(C)CCc1c[nH]c2ccc(C[C@H]3COC(=O)N3)cc12 | – | – | water | – | – | solubility | < 1000 µg/mL
Cc1c(OCC(F)(F)F)ccnc1C[S+]([O-])c1nc2ccccc2[nH]1 (centres unmarked) | – | – | – | – | – | plasma half-life | ~1.5 h
C=CC[C@@H]1/C=C(\C)C[C@H](C)C[C@H](OC)[C@H]2O[C@@](O)(C(=O)C(=O)N3CCCC[C@H]3C(=O)O[C@H](/C(C)=C/[C@@H]3CC[C@@H](O)[C@H](OC)C3)[C@H](C)[C@@H](O)CC1=O)[C@H](C)C[C@@H]2OC | – | – | human | – | – | fraction metabolized | > 99%
NC(=O)N1CCC(CC(=O)N2CCC([C@H]3c4ncc(Br)cc4CCc4cc(Cl)cc(Br)c43)CC2)CC1 | – | – | water | – | – | solubility | < 1000 µg/mL
CCCOc1ccc(S(=O)(=O)N2CCN(CCO)CC2)cc1-c1nc2c(CCC)cn(CC)c2c(=O)[nH]1 | – | – | healthy male volunteers | dose not given, with concomitant alcohol | – | diastolic blood pressure change | -13.8 mmHg
CC[C@H](C)C(=O)O[C@H]1C[C@H](O)C=C2C=C[C@H](C)[C@H](CC[C@@H](O)C[C@@H](O)CC(=O)O)[C@H]21 | – | – | plasma | – | – | free Cmax | 60 nM
C[C@@H](O)[C@H]1C(=O)N2C(C(=O)O)=C(S[C@@H]3CN[C@H](C(=O)N(C)C)C3)[C@H](C)[C@H]12 | – | perpetrator, refers to: valproic acid | human | dose not given | relative to: without compound | half-life reduction | 80%

SMILES | target or system | test | system | setting | how to read | endpoint | value
CC(C)(C)c1cc(C(C)(C)C)c(NC(=O)c2c[nH]c3ccccc3c2=O)cc1O | – | – | human, plasma | – | – | fraction unbound | 0.001
CCN(CC)CCNC(=O)c1c(C)[nH]c(/C=C2\C(=O)Nc3ccc(F)cc32)c1C | – | – | supercritical CO2 | – | – | crossover pressure | 150 to 170 bar
COc1cnc(-n2cnc(C)n2)c2c1c(C(=O)C(=O)N1CCN(C(=O)c3ccccc3)CC1)cn2COP(=O)(O)O | – | – | healthy human volunteers, faeces | oral, 300 mg single dose | relative to: dose | fecal recovery of radioactivity | 33%
Cc1cn([C@@H]2C[C@@H](O)[C@H](CO)O2)c(=O)[nH]c1=O | – | – | monkey | 10 mg/kg | – | oral bioavailability | 59%
CO[C@H]1/C=C/O[C@@]2(C)Oc3c(C)c(O)c4c(O)c(c(/C=N/N5CCN(C)CC5)c(O)c4c3C2=O)NC(=O)/C(C)=C\C=C\[C@H](C)[C@H](O)[C@@H](C)[C@@H](O)[C@@H](C)[C@H](OC(C)=O)[C@@H]1C | – | – | plasma | – | – | plasma fraction unbound | 0.0434
C[C@@H]1COCCN1c1cc(C2([S@](C)(=N)=O)CC2)nc(-c2cc[nH]c3nccc2-3)n1 | – | – | mouse cancer model | – | – | half-life | ≤ 2.17 h
CCCc1cc2cc(-n3nc(C)c4c3CC(C)(C)CC4=O)cc(N3CCC(O)CC3)c2c(=O)[nH]1 | – | – | – | pH 6.8 | – | aqueous solubility | 0.014 µM (≈ 6.48 ng/mL)
CN(C)C(=O)c1cc2cnc(Nc3ccc(N4CCNCC4)cn3)nc2n1C1CCCC1 | – | refers to: constipation | advanced solid tumour or lymphoma patients | dose not given, 3 weeks on 1 week off, any grade | relative to: patients | adverse event incidence | 22.4%
COCCc1ccc(OCC(O)CNC(C)C)cc1 (centres unmarked) | – | – | human fasted | 400 mg multiple doses, day 7, mean | – | AUC(0-24 h) | 3450 ng·h/mL
Nc1cc(C(F)(F)F)c(-c2nc(N3CCOCC3)nc(N3CCOCC3)n2)cn1 | TAOK2 (Homo sapiens, UniProt Q9UL54) | enzyme activity | – | 10 µM | relative to: untreated | remaining activity | 100%
Cc1cn([C@H]2C[C@H](N=[N+]=[N-])[C@@H](CO)O2)c(=O)[nH]c1=O | – | – | human | – | – | oral bioavailability | 74%
Cc1ncc(CO)c(C(=O)O)c1O | – | – | cynomolgus monkey | dose not given, added: probenecid | relative to: without probenecid over with | renal clearance decrease | ~3 fold
CCCSc1ccc2nc(NC(=O)OC)[nH]c2c1 | – | – | FaSSIF | literature value | – | solubility | 2 µg/mL (≈ 7.54 µM)
CC/C(=C(\c1ccc(O)cc1)c1ccc(OCCNC)cc1)c1ccccc1 | – | – | human CYP2D6 homozygous null | dose not given | relative to: CYP2D6 wild type | concentration decrease | 74%
Cc1[nH]c(C)c(-c2ccc(OCCOc3ccc(C(F)(F)F)cn3)cc2)c(=O)c1Br | Plasmodium falciparum | whole cell extended time | 3D7 | 72 h | – | IC50 | 140 nM
O=C(c1cc(Cc2n[nH]c(=O)c3ccccc23)ccc1F)N1CCN(C(=O)C2CC2)CC1 | – | – | female rat | dose not given, after 4 weeks daily dosing, at NOAEL | – | AUC(0-24 h) | 6270 ng·h/mL
CNCc1cc(-c2ccccc2F)n(S(=O)(=O)c2cccnc2)c1 | – | – | human | 40 mg, multiple dose | – | AUC(0-inf) | 472 ng·h/mL
Nc1nc2[nH]cc(CCc3ccc(C(=O)N[C@@H](CCC(=O)O)C(=O)O)cc3)c2c(=O)[nH]1 | – | – | water | – | – | solubility | < 1000 µg/mL
CNC(=O)c1cc(Oc2ccc(NC(=O)Nc3ccc(Cl)c(C(F)(F)F)c3)cc2)ccn1 | – | – | human | concentration not given, clinical | – | diarrhoea incidence | 43%
Nc1ccn([C@H]2CC[C@@H](CO)O2)c(=O)n1 | – | – | human | 1.5 mg | – | oral bioavailability | > 80%
CNC(C)C1CCC(N)C(OC2C(N)CC(N)C(OC3OCC(C)(O)C(NC)C3O)C2O)O1 (centres unmarked) | Pseudomonas aeruginosa | – | clinical isolate RKI-No_369/11 | – | – | MIC | 8 µg/mL (≈ 16.8 µM)
FC(F)(F)c1ccc(CNc2ccc(Cc3c[nH]c4ncc(Cl)cc34)cn2)cn1 | – | – | human, plasma | 1000 mg/day, day 15, observed mean | – | AUC(0-6 h) | 42800 ng·h/mL
O=C(O)c1cc(-c2ccc(F)cc2F)ccc1O | – | – | plasma | concentration not given, total, steady state | – | Cmax | 759000 nM
CCc1c(N(CC)C2CCOCC2)cc2oc(CN3CCCCC3)cc2c1C(=O)NCc1c(C)cc(C)[nH]c1=O | – | – | patients | dose not given | – | anaemia incidence | 41%
CNC[C@H](O)c1cccc(O)c1 | – | – | human | – | – | free Cmax | 3.08 nM
COc1ccc(CNc2nc(-c3ccc(C(=O)O)cc3)nc3sc4ccccc4c23)cc1Cl | – | – | mouse | intravenous | – | half-life | 0.7 h

For quick reference, copied from above:
SMILES | target or system | test | system | setting | how to read | endpoint | value
CNC(C)C1CCC(N)C(OC2C(N)CC(N)C(OC3OCC(C)(O)C(NC)C3O)C2O)O1 (centres unmarked) | Pseudomonas aeruginosa | – | clinical isolate RKI-No_369/11 | – | – | MIC | 8 µg/mL (≈ 16.8 µM)
COc1ccc(Cl)cc1C(=O)NCCc1ccc(S(=O)(=O)NC(=O)NC2CCCCC2)cc1 | – | – | water | – | – | solubility | < 1000 µg/mL
Cc1cc(-c2nccc3c2ccn3CC(=O)Nc2ccc(-c3cnccn3)cn2)ccn1 | – | – | dog | 10 mg/kg/day, 1 month, repeat dosing | – | AUC(0-24 h), total | 4.7 µM·h
Cc1cn([C@H]2C[C@H](N=[N+]=[N-])[C@@H](CO)O2)c(=O)[nH]c1=O | – | – | human | – | – | oral bioavailability | 74%
